Published values collected from several papers.
Protocols differ between the studies behind these lines. ± marks the error that the study gave.
OPRL1: Nociceptin receptor (OPRL1, Homo sapiens, UniProt P41146)

Chains of the proteins cited; added tags and fusions are not shown.
UniProt P41146, whole entry: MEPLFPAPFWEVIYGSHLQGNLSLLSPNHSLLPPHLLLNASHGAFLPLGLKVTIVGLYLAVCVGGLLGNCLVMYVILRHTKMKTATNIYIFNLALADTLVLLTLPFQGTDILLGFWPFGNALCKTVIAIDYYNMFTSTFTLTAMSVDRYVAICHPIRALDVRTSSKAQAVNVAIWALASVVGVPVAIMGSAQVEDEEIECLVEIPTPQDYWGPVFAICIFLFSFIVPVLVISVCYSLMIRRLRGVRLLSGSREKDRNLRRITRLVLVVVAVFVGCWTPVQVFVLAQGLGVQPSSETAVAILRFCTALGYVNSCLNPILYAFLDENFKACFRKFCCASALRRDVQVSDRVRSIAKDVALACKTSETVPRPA
UniProt Q8I719, whole entry: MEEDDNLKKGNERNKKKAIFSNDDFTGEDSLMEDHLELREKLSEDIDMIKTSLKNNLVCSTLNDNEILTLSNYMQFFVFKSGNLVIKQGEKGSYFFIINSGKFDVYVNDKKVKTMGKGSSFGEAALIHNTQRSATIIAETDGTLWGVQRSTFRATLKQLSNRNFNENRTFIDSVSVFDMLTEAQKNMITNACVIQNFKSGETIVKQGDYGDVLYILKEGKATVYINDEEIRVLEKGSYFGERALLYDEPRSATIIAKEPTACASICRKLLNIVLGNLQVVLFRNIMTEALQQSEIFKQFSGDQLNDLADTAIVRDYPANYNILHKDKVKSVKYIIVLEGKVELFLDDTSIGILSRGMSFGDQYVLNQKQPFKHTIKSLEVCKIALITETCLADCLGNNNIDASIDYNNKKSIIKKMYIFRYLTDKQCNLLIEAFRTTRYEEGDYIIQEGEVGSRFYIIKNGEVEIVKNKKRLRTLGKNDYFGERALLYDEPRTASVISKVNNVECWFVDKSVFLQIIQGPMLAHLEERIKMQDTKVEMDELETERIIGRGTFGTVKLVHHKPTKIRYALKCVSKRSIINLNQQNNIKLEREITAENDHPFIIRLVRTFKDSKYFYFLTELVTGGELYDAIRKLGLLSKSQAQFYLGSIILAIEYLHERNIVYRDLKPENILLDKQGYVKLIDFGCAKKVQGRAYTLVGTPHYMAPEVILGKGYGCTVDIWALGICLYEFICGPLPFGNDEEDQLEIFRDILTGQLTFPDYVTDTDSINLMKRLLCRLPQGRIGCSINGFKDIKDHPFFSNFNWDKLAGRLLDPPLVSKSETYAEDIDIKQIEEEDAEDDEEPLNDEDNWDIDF

Compound = CC[C@H](C)[C@H](NC(=O)[C@H](C)NC(=O)[C@H](CCC(=O)O)NC(=O)[C@H](CCC(=O)O)NC(=O)[C@H](CC(C)C)NC(=O)[C@H](CCCCN)NC(=O)[C@H](CCCCN)NC(=O)[C@H](CCSC)NC(=O)[C@H](CCC(=O)O)NC(=O)[C@H](Cc1ccc(O)cc1)NC(=O)[C@H](CCC(=O)O)NC(=O)[C@H](CC(C)C)NC(=O)[C@H](CC(=O)O)NC(=O)[C@H](CC(C)C)NC(=O)[C@H](Cc1ccccc1)NC(=O)[C@@H](NC(=O)[C@@H](NC(=O)[C@H](CC(N)=O)NC(=O)[C@@H](NC(=O)[C@H](CCC(N)=O)NC(=O)[C@H](CC(=O)O)NC(=O)[C@H](CC(C)C)NC(=O)[C@@H](N)CO)[C@@H](C)CC)C(C)C)[C@@H](C)O)C(=O)N[C@@H](CCCCN)C(=O)N[C@@H](CCCCN)C(=O)N[C@@H](CC(C)C)C(=O)N[C@@H](CCC(=O)O)C(=O)N[C@@H](CCC(=O)O)C(=O)N[C@@H](CO)C(=O)N[C@@H](Cc1ccc(O)cc1)C(=O)N[C@H](C(=O)N[C@@H](CC(=O)O)C(=O)N[C@@H](CC(C)C)C(=O)N[C@@H](CCCCN)C(=O)N[C@@H](CCC(=O)O)C(=O)N[C@@H](CC(C)C)C(=O)O)[C@@H](C)CC; target or system = SARS-CoV-2 XBB.1.5 pseudovirus; test = pseudovirus infection, inhibitor, luciferase; test system = Caco-2; conditions = 24 h; endpoint = IC50; result = 702 nM
Compound = CCCN(C)Cc1onc(-c2cccc(Cl)c2)c1-c1ccnc(N[C@@H]2CCN(C(=O)c3ccn(C)n3)C2)n1; target or system = cGMP-dependent protein kinase (PKG, Plasmodium falciparum, UniProt Q8I719); test = kinase activity, inhibitor, IMAP; endpoint = Ki; result = 23.8 ± 7.7 nM
Compound = CC(C)[C@H]1CC[C@@H](N2CCC3(CC2)C(=O)NCN3c2ccccc2)CC1; target or system = OPRL1; test = calcium mobilization; test system = CHO with Gαqi5; scale = reference: compound over N/OFQ EC50; endpoint = concentration ratio; result = 10
Compound = CC[C@H](C)[C@H](NC(=O)[C@H](C)NC(=O)[C@H](CCC(=O)O)NC(=O)[C@H](CCC(=O)O)NC(=O)[C@H](CC(C)C)NC(=O)[C@H](CCCCN)NC(=O)[C@H](CCCCN)NC(=O)[C@H](CCSC)NC(=O)[C@H](CCC(=O)O)NC(=O)[C@H](Cc1ccc(O)cc1)NC(=O)[C@H](CCC(=O)O)NC(=O)[C@H](CC(C)C)NC(=O)[C@H](CC(=O)O)NC(=O)[C@H](CC(C)C)NC(=O)[C@H](Cc1ccccc1)NC(=O)[C@@H](NC(=O)[C@@H](NC(=O)[C@H](CC(N)=O)NC(=O)[C@@H](NC(=O)[C@H](CCC(N)=O)NC(=O)[C@H](CC(=O)O)NC(=O)[C@H](CC(C)C)NC(=O)[C@@H](N)CO)[C@@H](C)CC)C(C)C)[C@@H](C)O)C(=O)N[C@@H](CCCCN)C(=O)N[C@@H](CCCCN)C(=O)N[C@@H](CC(C)C)C(=O)N[C@@H](CCC(=O)O)C(=O)N[C@@H](CCC(=O)O)C(=O)N[C@@H](C)C(=O)N[C@@H](Cc1ccc(O)cc1)C(=O)N[C@H](C(=O)N[C@@H](CC(=O)O)C(=O)N[C@@H](CC(C)C)C(=O)N[C@@H](CCCCN)C(=O)N[C@@H](CCC(=O)O)C(=O)N[C@@H](CC(C)C)C(=O)O)[C@@H](C)CC; target or system = SARS-CoV-2 Beta pseudovirus; test = pseudovirus infection, inhibitor, luciferase; test system = Caco-2; conditions = 24 h; endpoint = IC50; result = 687 nM
Compound = O=C(NCc1ccccc1)C1C(=O)N(O)C(=O)c2cc([N+](=O)[O-])ccc21 (stereo not drawn); target or system = Lymphocytic choriomeningitis mammarenavirus; test = minigenome reporter gene; conditions = 50 µM; scale = reference: DMSO; endpoint = remaining activity; result = 72.9%
Compound = O=C(NC1CCN(c2ncnc3[nH]cnc23)CC1)c1cccc(S(=O)(=O)Nc2ccc(Cl)cc2)c1; target or system = SARS-CoV-2; test system = Wuhan-Hu-1; conditions = 0.09145 µM; scale = reference: untreated infected cells; endpoint = relative infection; result = 70.7%
Compound = CC[C@H](C)[C@H](NC(=O)[C@H](C)NC(=O)[C@H](CCC(=O)O)NC(=O)[C@H](CCC(=O)O)NC(=O)[C@H](CC(C)C)NC(=O)[C@H](CCCCN)NC(=O)[C@H](CCCCN)NC(=O)[C@H](CCSC)NC(=O)[C@H](CCC(=O)O)NC(=O)[C@H](Cc1ccc(O)cc1)NC(=O)[C@H](CCC(=O)O)NC(=O)[C@H](CC(C)C)NC(=O)[C@H](CC(=O)O)NC(=O)[C@H](CC(C)C)NC(=O)[C@H](Cc1ccccc1)NC(=O)[C@H](Cc1ccccc1)NC(=O)[C@@H](NC(=O)[C@H](CC(N)=O)NC(=O)[C@@H](NC(=O)[C@H](CCC(N)=O)NC(=O)[C@H](CC(=O)O)NC(=O)[C@H](CC(C)C)NC(=O)[C@@H](N)CO)[C@@H](C)CC)C(C)C)C(=O)N[C@@H](CCCCN)C(=O)N[C@@H](CCCCN)C(=O)N[C@@H](CC(C)C)C(=O)N[C@@H](CCC(=O)O)C(=O)N[C@@H](CCC(=O)O)C(=O)N[C@@H](C)C(=O)N[C@@H](Cc1ccc(O)cc1)C(=O)N[C@H](C(=O)N[C@@H](CC(=O)O)C(=O)N[C@@H](CC(C)C)C(=O)N[C@@H](CCCCN)C(=O)N[C@@H](CCC(=O)O)C(=O)N[C@@H](CC(C)C)C(=O)O)[C@@H](C)CC; target or system = SARS-CoV-2 EG.5.1 pseudovirus; test = pseudovirus infection, inhibitor, luciferase; test system = Caco-2; conditions = 24 h, dual mutations; endpoint = IC50; result = 752 nM
Compound = CNC(=O)CC1C(=O)N(C2CCN([C@H]3CC[C@@H](C(C)C)CC3)CC2)c2ccccc21 (stereo partly drawn); target or system = OPRL1; test = G protein interaction, BRET; test system = HEK293 membranes; conditions = concentration not given, unit not given; scale = reference: N/OFQ maximal effect; endpoint = intrinsic activity; result = 0.99 ± 0.08
Compound = Cc1ccc(S(=O)(=O)Nc2cccc(C(=O)NC3CCN(c4ncnc5[nH]cnc45)CC3)c2)cc1Cl; target or system = SARS-CoV-2; test system = Wuhan-Hu-1; conditions = 7.407 µM; scale = reference: untreated infected cells; endpoint = relative infection; result = 38.8%
Compound = O=C(O)C(=O)CC(=O)C1(Cc2ccc(Cl)cc2)CCN(Cc2ccccc2)CC1; target or system = SFTSV; test = viral replication, cell-based; endpoint = effective concentration; result = > 50 µM
Compound = O=C(NCc1ccc(F)cc1)C1C(=O)N(O)C(=O)c2cc(C(F)(F)F)ccc21 (stereo not drawn); target or system = Lymphocytic choriomeningitis mammarenavirus; test = minigenome reporter gene; conditions = 100 µM; scale = reference: DMSO; endpoint = remaining activity; result = 51.9%
Compound = CN1C(=O)CCc2cc(C(=O)NCC=CS(C)(=O)=O)ccc21; target or system = Chikungunya virus; test = viral replication, nanoluciferase reporter; test system = 181/25-nLuc-Capsid; endpoint = IC50; result = 190 ± 20 nM

Repeated from above:
Compound = O=C(NCc1ccccc1)C1C(=O)N(O)C(=O)c2cc([N+](=O)[O-])ccc21 (stereo not drawn); target or system = Lymphocytic choriomeningitis mammarenavirus; test = minigenome reporter gene; conditions = 50 µM; scale = reference: DMSO; endpoint = remaining activity; result = 72.9%
